Measured values from different studies.
Parts stem from different laboratories: compare values within a part only. Several values in a cell are separate wells, animals, samples, runs or records.
UniProt P07949, sequence (whole entry, looked up): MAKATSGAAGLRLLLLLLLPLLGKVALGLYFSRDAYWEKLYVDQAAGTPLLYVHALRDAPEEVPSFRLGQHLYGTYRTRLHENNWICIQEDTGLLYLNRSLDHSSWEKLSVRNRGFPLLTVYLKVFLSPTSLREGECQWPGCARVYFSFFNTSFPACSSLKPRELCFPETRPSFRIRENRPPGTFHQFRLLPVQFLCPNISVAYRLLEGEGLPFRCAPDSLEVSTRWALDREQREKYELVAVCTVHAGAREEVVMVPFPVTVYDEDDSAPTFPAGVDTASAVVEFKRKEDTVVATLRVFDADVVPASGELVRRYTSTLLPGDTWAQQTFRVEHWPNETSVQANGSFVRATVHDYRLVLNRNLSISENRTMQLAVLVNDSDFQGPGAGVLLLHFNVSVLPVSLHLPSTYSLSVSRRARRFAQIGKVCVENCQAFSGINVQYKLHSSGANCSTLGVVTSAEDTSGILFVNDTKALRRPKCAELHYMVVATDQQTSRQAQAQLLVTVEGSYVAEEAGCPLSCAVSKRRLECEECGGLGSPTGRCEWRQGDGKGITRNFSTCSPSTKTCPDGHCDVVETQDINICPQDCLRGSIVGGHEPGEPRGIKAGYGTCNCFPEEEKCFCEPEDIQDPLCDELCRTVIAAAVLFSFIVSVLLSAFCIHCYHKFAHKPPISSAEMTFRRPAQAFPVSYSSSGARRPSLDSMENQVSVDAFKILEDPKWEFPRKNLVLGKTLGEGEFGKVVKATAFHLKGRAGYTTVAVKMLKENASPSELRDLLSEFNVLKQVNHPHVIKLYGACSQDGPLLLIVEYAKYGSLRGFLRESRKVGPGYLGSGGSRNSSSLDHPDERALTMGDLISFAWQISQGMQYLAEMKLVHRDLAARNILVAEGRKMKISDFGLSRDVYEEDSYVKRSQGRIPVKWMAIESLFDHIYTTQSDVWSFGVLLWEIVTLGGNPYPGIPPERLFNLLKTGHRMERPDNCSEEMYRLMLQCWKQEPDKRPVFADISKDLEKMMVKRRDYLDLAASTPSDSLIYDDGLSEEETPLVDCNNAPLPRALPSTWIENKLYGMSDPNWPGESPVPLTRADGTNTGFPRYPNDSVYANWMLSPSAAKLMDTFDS
UniProt Q8TD19, sequence (whole entry, looked up): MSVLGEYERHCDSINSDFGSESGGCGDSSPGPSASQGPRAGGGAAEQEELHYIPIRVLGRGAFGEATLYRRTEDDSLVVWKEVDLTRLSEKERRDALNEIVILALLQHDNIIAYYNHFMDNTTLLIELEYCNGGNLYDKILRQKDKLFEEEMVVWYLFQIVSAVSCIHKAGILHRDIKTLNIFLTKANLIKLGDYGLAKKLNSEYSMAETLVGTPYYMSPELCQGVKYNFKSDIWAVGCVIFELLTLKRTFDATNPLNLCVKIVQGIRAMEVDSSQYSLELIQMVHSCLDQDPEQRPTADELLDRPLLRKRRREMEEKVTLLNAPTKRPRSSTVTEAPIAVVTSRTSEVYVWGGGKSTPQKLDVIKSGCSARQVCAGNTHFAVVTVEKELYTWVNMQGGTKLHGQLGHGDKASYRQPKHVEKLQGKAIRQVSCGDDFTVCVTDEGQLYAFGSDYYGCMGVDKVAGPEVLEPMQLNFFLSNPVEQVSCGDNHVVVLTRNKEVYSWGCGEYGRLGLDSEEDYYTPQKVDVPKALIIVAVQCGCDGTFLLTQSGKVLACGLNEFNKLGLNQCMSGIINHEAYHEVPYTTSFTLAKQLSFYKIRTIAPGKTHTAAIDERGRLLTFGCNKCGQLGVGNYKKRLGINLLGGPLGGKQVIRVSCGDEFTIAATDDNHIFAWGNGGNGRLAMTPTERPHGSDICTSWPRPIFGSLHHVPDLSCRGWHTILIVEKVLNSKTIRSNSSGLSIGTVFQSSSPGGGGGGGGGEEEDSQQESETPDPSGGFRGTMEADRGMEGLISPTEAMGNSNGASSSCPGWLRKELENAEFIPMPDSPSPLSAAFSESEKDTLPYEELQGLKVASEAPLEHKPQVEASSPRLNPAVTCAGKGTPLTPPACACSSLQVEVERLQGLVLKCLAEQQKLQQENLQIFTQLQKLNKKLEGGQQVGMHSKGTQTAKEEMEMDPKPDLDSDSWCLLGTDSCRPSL
UniProt Q15139, sequence (whole entry, looked up): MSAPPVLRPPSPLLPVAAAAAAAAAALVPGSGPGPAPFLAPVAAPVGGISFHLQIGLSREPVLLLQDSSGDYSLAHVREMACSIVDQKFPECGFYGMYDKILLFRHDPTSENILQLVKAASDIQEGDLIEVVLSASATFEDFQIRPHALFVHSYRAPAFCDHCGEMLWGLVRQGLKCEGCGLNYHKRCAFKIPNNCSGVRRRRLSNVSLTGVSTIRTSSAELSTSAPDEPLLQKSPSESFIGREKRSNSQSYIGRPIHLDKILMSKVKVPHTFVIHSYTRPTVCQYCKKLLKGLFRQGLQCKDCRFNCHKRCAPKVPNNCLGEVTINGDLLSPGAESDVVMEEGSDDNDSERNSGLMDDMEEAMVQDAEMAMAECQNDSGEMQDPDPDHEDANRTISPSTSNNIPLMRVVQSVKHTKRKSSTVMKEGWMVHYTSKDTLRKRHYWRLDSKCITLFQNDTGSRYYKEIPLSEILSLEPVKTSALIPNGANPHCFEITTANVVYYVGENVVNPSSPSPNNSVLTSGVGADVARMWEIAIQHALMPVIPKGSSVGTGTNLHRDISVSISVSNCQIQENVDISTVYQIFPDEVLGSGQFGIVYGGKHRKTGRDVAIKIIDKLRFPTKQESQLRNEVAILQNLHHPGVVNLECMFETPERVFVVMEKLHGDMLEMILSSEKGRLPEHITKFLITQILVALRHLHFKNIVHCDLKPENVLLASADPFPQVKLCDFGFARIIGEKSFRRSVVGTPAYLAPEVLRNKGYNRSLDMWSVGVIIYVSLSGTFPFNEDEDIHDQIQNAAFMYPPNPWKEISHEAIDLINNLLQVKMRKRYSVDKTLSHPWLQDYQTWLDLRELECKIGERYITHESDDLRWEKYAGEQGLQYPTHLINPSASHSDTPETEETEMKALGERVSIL
UniProt Q8TDC3, sequence (whole entry, looked up): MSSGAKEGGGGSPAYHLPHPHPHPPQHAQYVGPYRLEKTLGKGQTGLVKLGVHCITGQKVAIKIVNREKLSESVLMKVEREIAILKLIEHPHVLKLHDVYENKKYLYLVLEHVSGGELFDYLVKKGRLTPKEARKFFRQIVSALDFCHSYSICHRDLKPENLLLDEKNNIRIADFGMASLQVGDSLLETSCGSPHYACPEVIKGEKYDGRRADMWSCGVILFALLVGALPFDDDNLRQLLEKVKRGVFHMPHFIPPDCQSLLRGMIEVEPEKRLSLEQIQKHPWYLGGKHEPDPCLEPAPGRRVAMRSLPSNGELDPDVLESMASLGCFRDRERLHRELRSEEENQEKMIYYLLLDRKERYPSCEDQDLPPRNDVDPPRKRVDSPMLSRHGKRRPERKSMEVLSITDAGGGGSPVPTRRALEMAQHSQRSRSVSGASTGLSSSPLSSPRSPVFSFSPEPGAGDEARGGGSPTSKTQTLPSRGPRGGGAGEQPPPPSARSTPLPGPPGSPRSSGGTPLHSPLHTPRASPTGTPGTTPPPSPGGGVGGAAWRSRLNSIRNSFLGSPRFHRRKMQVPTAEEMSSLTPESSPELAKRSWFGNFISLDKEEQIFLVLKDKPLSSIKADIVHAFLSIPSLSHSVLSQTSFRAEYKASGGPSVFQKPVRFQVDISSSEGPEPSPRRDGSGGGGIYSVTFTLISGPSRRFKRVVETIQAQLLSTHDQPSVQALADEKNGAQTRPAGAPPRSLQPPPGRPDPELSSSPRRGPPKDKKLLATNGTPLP
UniProt Q9Y2U5, sequence (whole entry, looked up): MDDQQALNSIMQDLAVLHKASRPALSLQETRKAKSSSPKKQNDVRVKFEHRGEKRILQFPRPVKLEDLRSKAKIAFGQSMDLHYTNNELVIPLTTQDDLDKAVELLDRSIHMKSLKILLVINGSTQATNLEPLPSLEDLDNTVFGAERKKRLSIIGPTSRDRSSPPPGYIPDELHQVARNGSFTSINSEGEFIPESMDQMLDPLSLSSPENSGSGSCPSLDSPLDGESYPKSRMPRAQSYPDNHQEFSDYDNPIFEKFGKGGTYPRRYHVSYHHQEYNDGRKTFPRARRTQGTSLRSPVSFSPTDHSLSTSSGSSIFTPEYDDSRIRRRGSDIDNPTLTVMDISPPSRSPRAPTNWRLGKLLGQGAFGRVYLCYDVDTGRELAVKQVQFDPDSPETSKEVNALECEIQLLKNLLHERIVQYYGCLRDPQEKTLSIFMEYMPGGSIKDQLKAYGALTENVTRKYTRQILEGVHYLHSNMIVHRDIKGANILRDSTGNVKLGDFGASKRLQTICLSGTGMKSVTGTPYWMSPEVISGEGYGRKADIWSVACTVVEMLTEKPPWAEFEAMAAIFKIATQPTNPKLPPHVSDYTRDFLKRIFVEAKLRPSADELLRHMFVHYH

Set 1
Cell line: A-375
Concentration: 100 µM
Time: 36 h
Structure (SMILES)	viability [%]
CNCC(O)c1ccc(O)c(O)c1 (racemic)	132
CN(C)CCCN1c2ccccc2Sc2ccccc21	-0.773
COC(=O)C1=C(C)NC(C)=C(C(=O)OCCN(C)Cc2ccccc2)C1c1cccc([N+](=O)[O-])c1 (stereo not drawn)	4.76
O=C(OCc1ccccc1)c1ccccc1	52.1
Cn1c([N+](=O)[O-])cnc1COC(N)=O	101
Cn1c(=O)c2[nH]c(Br)nc2n(C)c1=O	95

Set 2
Cell line: mouse MPNST tumor cells
Technique: high-content immunofluorescence imaging
Refers to: nuclear SOX9
Concentration: 10 µM
Time: 12 h
Setting: mean of 2 replicates
Baseline: DMSO control
Direction: higher = more nuclear SOX9
Structure (SMILES)	nuclear SOX9 intensity
CCCCCS(=O)(=O)CCCCCCCCCCn1c(-c2ccc(O)cc2)c(C)c2cc(O)ccc21	146 % of DMSO
COc1ccc2[nH]cc(CCNC(C)=O)c2c1	98.9 % of DMSO and 100 % of DMSO
Cc1scc2c1N(C(=O)CN1CCN(C)CC1)c1ccccc1NC2=O	103 % of DMSO
c1cc(CN2CCCNCCNCCCNCC2)ccc1CN1CCCNCCNCCCNCC1	105 % of DMSO
CC(=O)Oc1ccc(C(c2ccc(OC(C)=O)cc2)c2ccccn2)cc1	101 % of DMSO
CCN(CC)CC(=O)Nc1c(C)cccc1C	106 % of DMSO

Set 3
Compound: Cc1ccc(NC2=CC(=O)c3sc(C)nc3C2=O)cc1
Read-out: enzyme activity
Mode: inhibitor
Concentration: 0.5 µM
Baseline: control
target	remaining activity [%]
RET (Homo sapiens, UniProt P07949)	97.6
MAP3K2 (Homo sapiens, UniProt Q9Y2U5)	93.3
NEK9 (Homo sapiens, UniProt Q8TD19)	99.4
SLK (Homo sapiens, UniProt Q9H2G2)	80.6
BRSK1 (Homo sapiens, UniProt Q8TDC3)	88.6
ROS1 (Homo sapiens, UniProt P08922)	107
HIPK3 (Homo sapiens, UniProt Q9H422)	101
PRKD1 (Homo sapiens, UniProt Q15139)	102

Further values, each from its own experiment
Compound	cell line	test	conditions	quantity	result
Cn1cncc1[C@@](O)(COc1ccc(C#N)cc1-c1ccc(OC(F)(F)F)cc1)c1ccc(C#N)cc1	HEK293T	high-content imaging	10 µM, 0 h	pyknotic nuclei	28.8% and 24.6%

Some of these lines once more (set 1):
Structure (SMILES)	viability [%]
CN(C)CCCN1c2ccccc2Sc2ccccc21	-0.773
O=C(OCc1ccccc1)c1ccccc1	52.1
CNCC(O)c1ccc(O)c(O)c1 (racemic)	132
